Assay results of several laboratories.
Each numbered part is a random draw from the data of one study; scales do not carry over between parts.
Sequence of UniProt Q14164 (whole entry, looked up): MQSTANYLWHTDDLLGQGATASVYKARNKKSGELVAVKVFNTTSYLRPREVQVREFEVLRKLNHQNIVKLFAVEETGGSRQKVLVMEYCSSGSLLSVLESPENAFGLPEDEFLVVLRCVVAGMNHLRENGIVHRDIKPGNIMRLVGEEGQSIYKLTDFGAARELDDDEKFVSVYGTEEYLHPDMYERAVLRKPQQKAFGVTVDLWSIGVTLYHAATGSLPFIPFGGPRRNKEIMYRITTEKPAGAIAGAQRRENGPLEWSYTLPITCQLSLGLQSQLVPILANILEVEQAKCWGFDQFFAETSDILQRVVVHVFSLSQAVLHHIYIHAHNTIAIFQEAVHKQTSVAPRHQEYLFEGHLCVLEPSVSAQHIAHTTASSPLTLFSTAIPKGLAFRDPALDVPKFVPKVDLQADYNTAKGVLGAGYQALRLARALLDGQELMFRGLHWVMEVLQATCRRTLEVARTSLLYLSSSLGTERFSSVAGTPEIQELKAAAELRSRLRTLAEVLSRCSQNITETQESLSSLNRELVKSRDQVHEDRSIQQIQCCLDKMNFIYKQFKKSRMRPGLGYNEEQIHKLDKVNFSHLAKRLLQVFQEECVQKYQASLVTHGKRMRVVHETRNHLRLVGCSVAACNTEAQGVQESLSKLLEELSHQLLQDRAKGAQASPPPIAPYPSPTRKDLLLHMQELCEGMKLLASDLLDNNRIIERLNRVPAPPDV
Sequence of UniProt P51955 (whole entry, looked up): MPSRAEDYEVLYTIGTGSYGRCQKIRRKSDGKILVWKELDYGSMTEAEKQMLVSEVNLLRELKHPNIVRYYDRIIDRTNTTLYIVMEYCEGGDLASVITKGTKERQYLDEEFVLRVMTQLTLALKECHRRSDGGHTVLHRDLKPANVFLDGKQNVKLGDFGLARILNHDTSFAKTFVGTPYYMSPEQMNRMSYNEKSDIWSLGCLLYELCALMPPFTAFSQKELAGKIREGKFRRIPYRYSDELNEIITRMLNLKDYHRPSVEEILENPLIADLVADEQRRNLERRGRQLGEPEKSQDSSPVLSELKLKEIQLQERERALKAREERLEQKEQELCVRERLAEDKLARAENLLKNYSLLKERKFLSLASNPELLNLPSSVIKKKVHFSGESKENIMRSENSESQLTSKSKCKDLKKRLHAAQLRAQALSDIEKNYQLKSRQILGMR
Sequence of UniProt P16234 (whole entry, looked up): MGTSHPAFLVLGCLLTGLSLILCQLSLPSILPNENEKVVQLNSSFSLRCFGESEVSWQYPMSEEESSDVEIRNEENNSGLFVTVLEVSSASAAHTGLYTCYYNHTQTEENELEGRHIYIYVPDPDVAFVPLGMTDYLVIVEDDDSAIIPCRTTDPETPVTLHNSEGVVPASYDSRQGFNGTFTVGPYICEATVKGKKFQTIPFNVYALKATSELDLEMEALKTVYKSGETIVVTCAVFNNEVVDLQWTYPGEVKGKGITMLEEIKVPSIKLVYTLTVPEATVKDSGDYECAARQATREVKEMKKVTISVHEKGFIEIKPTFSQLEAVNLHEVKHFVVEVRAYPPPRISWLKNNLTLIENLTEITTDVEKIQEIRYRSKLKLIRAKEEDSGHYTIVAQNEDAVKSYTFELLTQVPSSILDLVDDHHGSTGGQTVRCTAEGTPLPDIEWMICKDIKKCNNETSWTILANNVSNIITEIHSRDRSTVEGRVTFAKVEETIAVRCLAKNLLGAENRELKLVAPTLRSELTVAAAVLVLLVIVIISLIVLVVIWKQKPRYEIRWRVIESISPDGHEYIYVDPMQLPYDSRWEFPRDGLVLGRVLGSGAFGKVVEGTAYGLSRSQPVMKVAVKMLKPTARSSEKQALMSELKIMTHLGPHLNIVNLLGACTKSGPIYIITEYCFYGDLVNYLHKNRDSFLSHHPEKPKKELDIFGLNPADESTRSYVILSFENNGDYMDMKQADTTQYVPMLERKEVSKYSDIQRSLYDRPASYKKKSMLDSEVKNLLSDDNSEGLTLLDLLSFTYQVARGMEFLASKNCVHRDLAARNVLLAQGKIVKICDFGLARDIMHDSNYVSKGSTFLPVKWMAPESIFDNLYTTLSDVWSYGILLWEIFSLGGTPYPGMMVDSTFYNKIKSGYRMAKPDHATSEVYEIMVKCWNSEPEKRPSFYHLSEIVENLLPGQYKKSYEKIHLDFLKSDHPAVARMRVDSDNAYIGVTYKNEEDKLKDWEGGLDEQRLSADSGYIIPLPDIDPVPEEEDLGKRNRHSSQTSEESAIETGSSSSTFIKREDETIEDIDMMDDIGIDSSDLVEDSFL
Sequence of UniProt O76039 (whole entry, looked up): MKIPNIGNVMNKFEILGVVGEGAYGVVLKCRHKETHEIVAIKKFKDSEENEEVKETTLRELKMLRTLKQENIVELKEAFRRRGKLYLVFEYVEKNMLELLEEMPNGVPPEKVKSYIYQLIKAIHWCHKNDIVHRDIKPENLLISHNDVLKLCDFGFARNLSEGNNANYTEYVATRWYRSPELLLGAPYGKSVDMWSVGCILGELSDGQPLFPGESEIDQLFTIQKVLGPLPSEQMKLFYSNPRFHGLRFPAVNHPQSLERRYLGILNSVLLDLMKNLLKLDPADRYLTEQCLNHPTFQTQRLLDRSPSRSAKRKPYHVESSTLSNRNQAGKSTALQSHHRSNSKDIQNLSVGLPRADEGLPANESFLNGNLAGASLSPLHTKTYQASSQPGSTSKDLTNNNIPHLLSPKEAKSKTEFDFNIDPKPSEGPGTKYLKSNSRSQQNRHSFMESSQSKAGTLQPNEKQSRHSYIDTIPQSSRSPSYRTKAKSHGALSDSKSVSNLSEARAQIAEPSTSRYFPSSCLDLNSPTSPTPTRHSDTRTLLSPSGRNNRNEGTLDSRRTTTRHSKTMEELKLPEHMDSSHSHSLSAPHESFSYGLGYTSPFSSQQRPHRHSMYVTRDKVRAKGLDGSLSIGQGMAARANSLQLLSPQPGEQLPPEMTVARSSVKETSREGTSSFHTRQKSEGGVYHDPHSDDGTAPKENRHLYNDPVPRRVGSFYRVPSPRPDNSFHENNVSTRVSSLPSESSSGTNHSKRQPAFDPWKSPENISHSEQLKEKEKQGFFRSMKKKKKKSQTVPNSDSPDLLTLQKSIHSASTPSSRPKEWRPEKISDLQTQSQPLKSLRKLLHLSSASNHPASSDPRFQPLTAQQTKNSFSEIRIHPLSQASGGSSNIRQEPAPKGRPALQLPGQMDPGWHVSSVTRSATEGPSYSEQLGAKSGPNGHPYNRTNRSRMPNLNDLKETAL
Sequence of UniProt Q8IYT8 (whole entry, looked up): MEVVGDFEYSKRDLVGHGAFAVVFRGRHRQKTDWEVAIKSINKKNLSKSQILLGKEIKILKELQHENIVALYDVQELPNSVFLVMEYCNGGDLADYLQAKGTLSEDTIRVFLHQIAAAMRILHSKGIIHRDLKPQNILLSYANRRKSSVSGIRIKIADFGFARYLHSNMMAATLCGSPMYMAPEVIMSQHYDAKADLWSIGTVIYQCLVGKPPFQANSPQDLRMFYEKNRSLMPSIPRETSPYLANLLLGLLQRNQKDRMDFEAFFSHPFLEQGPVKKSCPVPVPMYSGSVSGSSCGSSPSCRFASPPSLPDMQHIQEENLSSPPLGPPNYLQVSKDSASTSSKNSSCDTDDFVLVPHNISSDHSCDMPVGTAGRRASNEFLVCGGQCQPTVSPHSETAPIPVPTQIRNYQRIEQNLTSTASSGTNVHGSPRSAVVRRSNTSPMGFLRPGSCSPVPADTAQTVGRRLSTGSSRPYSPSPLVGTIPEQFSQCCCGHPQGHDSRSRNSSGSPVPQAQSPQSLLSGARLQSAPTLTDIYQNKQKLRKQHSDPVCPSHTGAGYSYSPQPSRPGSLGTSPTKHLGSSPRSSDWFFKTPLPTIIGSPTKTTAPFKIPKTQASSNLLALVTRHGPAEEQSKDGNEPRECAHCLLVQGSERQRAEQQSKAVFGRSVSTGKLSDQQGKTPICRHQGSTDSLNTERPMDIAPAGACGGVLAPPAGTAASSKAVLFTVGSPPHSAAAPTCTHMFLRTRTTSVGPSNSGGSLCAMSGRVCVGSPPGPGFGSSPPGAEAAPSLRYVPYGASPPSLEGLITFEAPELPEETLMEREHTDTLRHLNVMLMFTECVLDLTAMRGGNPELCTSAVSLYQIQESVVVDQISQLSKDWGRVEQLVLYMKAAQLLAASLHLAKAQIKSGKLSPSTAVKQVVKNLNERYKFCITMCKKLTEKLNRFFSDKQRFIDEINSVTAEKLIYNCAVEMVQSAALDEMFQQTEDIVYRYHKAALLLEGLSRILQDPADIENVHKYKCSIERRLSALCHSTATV

Series 1
Compound: Cc1nc(N2CC[C@@H](O)C2)ncc1-c1cc(C(F)(F)F)cc2[nH]ncc12
Method: competition with immobilised ligand
Concentration: 1 µM
target | effect on | remaining binding [%]
CDKL5 (Homo sapiens, UniProt O76039) | binding | 77
NEK2 (Homo sapiens, UniProt P51955) | binding | 92
STK17A (Homo sapiens, UniProt Q9UEE5) | cell-free assay | 100
COQ8A (Homo sapiens, UniProt Q8NI60) | cell-free assay | 100
IKBKE (Homo sapiens, UniProt Q14164) | binding | 89
PRKAA1 (Homo sapiens, UniProt Q13131) | cell-free assay | 89
FGFR3 (Homo sapiens, UniProt P22607) | cell-free assay | 100
CAMK1G (Homo sapiens, UniProt Q96NX5) | cell-free assay | 100
Tyrosine-protein kinase ABL1, non-phosphorylated (ABL1, Homo sapiens, UniProt P00519, F317I) | binding | 73
BRSK2 (Homo sapiens, UniProt Q8IWQ3) | binding | 90
WEE1 (Homo sapiens, UniProt P30291) | binding | 73
PDGFRA (Homo sapiens, UniProt P16234) | cell-free assay | 76
PIK3CA (Homo sapiens, UniProt P42336, I800L) | cell-free assay | 66
ULK2 (Homo sapiens, UniProt Q8IYT8) | binding | 66
Tyrosine-protein kinase ABL1, phosphorylated (ABL1, Homo sapiens, UniProt P00519, F317L) | binding | 58
PRKCI (Homo sapiens, UniProt P41743) | cell-free assay | 100
FLT3 (Homo sapiens, UniProt P36888, N841I) | binding | 88
LIM domain kinase 2 (LIMK2, Homo sapiens, UniProt P53671) | binding | 100
RIOK3 (Homo sapiens, UniProt O14730) | binding | 100
Tyrosine-protein kinase ABL1, phosphorylated (ABL1, Homo sapiens, UniProt P00519, M351T) | binding | 72
STK16 (Homo sapiens, UniProt O75716) | binding | 92

Series 2
Target: Cyclin-dependent kinase 6, with cyclin D1 (CDK6, Homo sapiens, UniProt Q00534)
Sequence of UniProt Q00534 (whole entry, looked up): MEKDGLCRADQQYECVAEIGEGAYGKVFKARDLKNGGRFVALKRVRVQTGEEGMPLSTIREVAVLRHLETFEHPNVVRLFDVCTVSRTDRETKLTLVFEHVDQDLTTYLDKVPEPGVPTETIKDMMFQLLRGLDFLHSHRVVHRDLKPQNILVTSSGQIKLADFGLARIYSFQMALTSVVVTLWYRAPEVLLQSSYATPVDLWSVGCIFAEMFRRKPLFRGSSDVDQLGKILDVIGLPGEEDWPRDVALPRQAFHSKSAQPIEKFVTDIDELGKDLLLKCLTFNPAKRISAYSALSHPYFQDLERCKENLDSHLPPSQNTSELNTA
Effect on: enzyme activity
Mode: inhibitor
Concentration: 0.5 µM
Relative to: control
Compound | remaining activity
N#C/C(=C\c1ccc(O)c(O)c1)C(=O)NCc1ccccc1 | 95.6%
Nc1cccc(-c2cc3c(Oc4cccc(O)c4)ncnc3[nH]2)c1 | 82.2%
CCN(CC)CCNC(=O)c1c(C)[nH]c(/C=C2\C(=O)Nc3ccc(Cl)cc32)c1C | 27.8%
N#Cc1c(NC(=O)c2cccc3ccccc23)sc2c1CCCC2 | 94%
O=C(NC(NC(=S)Nc1ccc(F)c([N+](=O)[O-])c1)C(Cl)(Cl)Cl)C(c1ccccc1)c1ccccc1 (centres unmarked) | 101%
Cc1cc2ncc(-c3ccccc3)nc2cc1C | 87.1%
Cn1nc2c3c(cccc31)C(=O)c1ccccc1-2 | 88%
COc1cc2ncnc(Nc3ccc(O)c(Br)c3)c2cc1OC | 95.4%
CCN(CC)C(=O)c1ccc(Nc2nc(OCC3CCCCC3)c3[nH]cnc3n2)cc1 | 52.9%
Ic1cccc(CSc2nnc(-c3ccncc3)o2)c1 | 97.5%
O=C1c2ccccc2-c2n[nH]c3cccc1c23 | 88.6%
COc1cc2ncnc(Nc3cccc(Cl)c3)c2cc1OC | 92.5%
O=C1C(Cl)=C(N2C(=O)CCC2=O)C(=O)c2ccccc21 | 100%
O=C(Nc1cccc(Nc2nccc(Nc3cccc(C(F)(F)F)c3)n2)c1)C1CC1 | 93.4%
Cc1nc2cc3nc(-c4cccs4)cnc3cc2n1C | 99.3%
CN([C@@H](Cc1ccc(OS(=O)(=O)c2cccc3cnccc23)cc1)C(=O)N1CCN(c2ccccc2)CC1)S(=O)(=O)c1cccc2cnccc12 | 91.6%
C[C@@H]1CCN(C(=O)CC#N)C[C@@H]1N(C)c1ncnc2[nH]ccc12 | 96.5%
c1ccc(-c2cnc(Nc3ccc(OCCN4CCCC4)cc3)s2)cc1 | 40.3%
Cc1cn(-c2cc(NC(=O)c3ccc(C)c(Nc4nccc(-c5cccnc5)n4)c3)cc(C(F)(F)F)c2)cn1 | 97.1%
CCOc1nc(NC(=O)Cc2cc(OC)ccc2OC)cc(N)c1C#N | 95.2%
c1ccc(-c2[nH]ncc2-c2ccnc3ccccc23)nc1 | 91.1%
CN(C)C[C@H]1CCn2c(c(C3=C(c4cn(C)c5ccccc45)C(=O)NC3=O)c3ccccc32)C1 | 70.5%
O=c1cc(-c2cccc3c2Sc2ccccc2S3)oc(N2CCOCC2)c1 | 98.1%
CCN(CC)CCNC(=O)c1c(C)[nH]c(/C=C2\C(=O)Nc3ccc(F)cc32)c1C | 50.5%

Series 3
Target: Eukaryotic initiation factor 4A-III (Homo sapiens, UniProt P38919)
Sequence of UniProt P38919 (whole entry, looked up): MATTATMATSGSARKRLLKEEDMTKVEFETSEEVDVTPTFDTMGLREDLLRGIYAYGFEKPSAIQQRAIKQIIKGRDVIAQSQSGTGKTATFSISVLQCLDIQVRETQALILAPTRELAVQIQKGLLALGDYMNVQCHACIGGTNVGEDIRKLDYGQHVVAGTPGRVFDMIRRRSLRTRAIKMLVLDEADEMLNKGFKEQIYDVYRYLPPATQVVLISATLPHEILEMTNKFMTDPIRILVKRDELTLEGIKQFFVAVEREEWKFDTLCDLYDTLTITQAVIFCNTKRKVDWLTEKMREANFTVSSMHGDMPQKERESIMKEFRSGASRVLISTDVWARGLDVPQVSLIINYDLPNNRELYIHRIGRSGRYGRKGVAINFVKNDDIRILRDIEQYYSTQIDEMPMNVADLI
Effect on: RNA clamping
Method: fluorescence polarization
Concentration: concentration not given
Added: FAM-labelled poly r(AG)8 RNA
SMILES | fluorescence polarization change [mP]
COc1ccc([C@@]23Oc4cc(O)cc(OC)c4[C@]2(O)[C@H](O)[C@H](C(=O)N(C)OC)[C@H]3c2ccccc2)cc1 | -0.3
CNCCOc1ccc2c(c1)O[C@@]1(c3ccc(Cl)cc3)[C@H](c3ccccc3)C[C@H](O)[C@@]21O | 108
COC(=O)[C@H]1C(=O)[C@@]2(NCC3CCOCC3)c3c(OC)cc(OC)cc3O[C@@]2(c2ccc(OC)cc2)[C@@H]1c1ccccc1 | -0.6
COC(=O)[C@@H]1[C@@H](c2ccccc2)[C@]2(c3ccc(OC)cc3)Oc3cc(OC)cc(OC)c3[C@@]23NC(c2ccc(OC)cc2)=N[C@@]13O | 9.6
COC(=O)[C@@H]1[C@@H](c2ccccc2)[C@]2(c3ccc(OC)cc3)Oc3cc(OC)cc(OC)c3[C@@]23OC(c2cccnc2)=N[C@@]13O | 3.2
CCCC1=N[C@@]2(O)[C@H](C(=O)OC)[C@@H](c3ccccc3)[C@]3(c4ccc(OC)cc4)Oc4cc(OC)cc(OC)c4[C@]23N1 | 31.5
CN[C@@]12C(=O)[C@H](C(=O)OC)[C@@H](c3ccccc3)[C@]1(c1ccc(OC)cc1)Oc1cc(OC)cc(OC)c12 | 4.1

Series 4
Host: mouse
Matrix: microsomes or S9
Concentration: 2 µM
Time: 0.5 h
SMILES | remaining compound
Cc1nc(C2(NS(=O)(=O)c3c(C)c(C)c(C)c(C)c3C)CCCC2)no1 | 0.446%
C=CC(C)(O)CC[C@]1(C)[C@H]2CC(=O)C=C(C)[C@]2(C)C[C@@H](O)[C@@H]1C (some centres unmarked) | 10.5%
O=C(Nc1ccncc1)c1nn(-c2ccc(F)cc2)c2c1CCc1ccccc1-2 | 84.5%
COc1cc(Br)c(S(=O)(=O)N[C@@H]2CCCN(C(=O)c3ccccc3)C2)cc1OC | 14.4%
Cc1cccc(-c2noc(-c3cn(CC(=O)Nc4cccc(C)c4C)c4nc(C)ccc4c3=O)n2)c1 | 26.6%
O=S1(=O)CCC(S(=O)(=O)N2CCN(c3ccccc3)CC2)C1 (centres unmarked) | 34.6%
CCOc1ccc2[nH]c3c(=O)n(CCN(C(C)C)C(C)C)cnc3c2c1 | 1.46%
CC(Nc1ncc(Cl)cn1)C(C)n1cncn1 (centres unmarked) | 86.1%
Cc1ccc(C)c(-n2nnnc2SCc2nc3cc(C(F)(F)F)ccc3c(=O)[nH]2)c1 | 21.3%
Cc1cc(NCc2cc(-c3cnn(C)c3C)no2)c(Cl)cc1F | 1.67%

Some of these lines once more (series 2):
Compound | remaining activity
c1ccc(-c2cnc(Nc3ccc(OCCN4CCCC4)cc3)s2)cc1 | 40.3%
N#Cc1c(NC(=O)c2cccc3ccccc23)sc2c1CCCC2 | 94%
O=C(Nc1cccc(Nc2nccc(Nc3cccc(C(F)(F)F)c3)n2)c1)C1CC1 | 93.4%
c1ccc(-c2[nH]ncc2-c2ccnc3ccccc23)nc1 | 91.1%
